Published values of several laboratories.
Numbered parts are unrelated; each lists some results of a single study. Changes are numbered by the printed parent chain.

Sample 1 — target: JUN, bZIP domain (human); technique: DHFR protein complementation; sample: yeast; reference: wild-type JUN-FOS pair; direction: higher = stronger binding
Notes: single substitutions, most at no-binding floor
Starting sequence: JUN, bZIP domain (human); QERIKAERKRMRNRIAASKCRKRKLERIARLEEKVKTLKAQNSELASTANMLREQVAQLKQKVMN; partner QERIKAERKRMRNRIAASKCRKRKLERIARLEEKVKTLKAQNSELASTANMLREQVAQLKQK
Change	binding fitness [natural log]
A46M	-0.111
R30H	-0.167
S47Q	-0.0828
S43F	-0.277
T37M	0.279
Q55C	-0.599
S47D	-0.0658
M51T	-0.177
K36E	-0.235
K39M	-0.152
N42S	-1.06
A49M	-0.655
Q55N	-1.1

Sample 2 — technique: protein binding microarray; molecule type: double-stranded DNA, one strand shown; sample: in vitro; tested at: not given; reference: not given; direction: higher = stronger binding
Target: Histone acetyltransferase KAT6A, winged helix 1, GST fusion (KAT6A, Homo sapiens, UniProt Q92794, residues 1-85)
Notes: 8-mer, flanks averaged, mean of 2 arrays, mostly near background
Residues (chain): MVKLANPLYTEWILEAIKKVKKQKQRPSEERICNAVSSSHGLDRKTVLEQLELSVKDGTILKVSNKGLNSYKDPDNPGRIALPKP
Sequence	E-score
CATCTACG	0.276
CGCCTCCA	0.123
CTCACGTC	-0.0736
GAGTCCAC	-0.0381
ACTGATAT	-0.0846
TACCTGCA	0.0082
GGCGGTAA	0.383
CACGGGCC	0.284
GTCCAAAA	-0.073
AGGAGCTA	-0.0332
GACCTGGC	-0.138
CGGAAATC	0.0449
GCCATAGA	0.00709
ATGAAAGG	-0.0786
CACATGTC	-0.0675
AGGGAAGA	-0.091

Sample 3 — target: CCNF, cyclin fold, Cln2 fusion (human); technique: yeast growth competition, sequencing; sample: yeast; notes: strong parent motif; reference: not given; direction: higher = stronger binding
Starting sequence: PKMYT1 docking peptide (human); SFEPRNLLSLFED
Change	normalised enrichment score
SFCPRNLLSLFED [E3C]	2.08
MFEPRNLLSLFED [S1M]	2.64
SFDPRNLLSLFED [E3D]	0.487
SFEPRNDLSLFED [L7D]	-1.11
SFEPRNLLSLNED [F11N]	-0.444
SFIPRNLLSLFED [E3I]	1.16
SDEPRNLLSLFED [F2D]	-0.546
SFEPRNLLELFED [S9E]	0.824
SPEPRNLLSLFED [F2P]	-0.499
EFEPRNLLSLFED [S1E]	-0.221
SFEPRNLPSLFED [L8P]	-0.759
SFEPRNKLSLFED [L7K]	-0.808
VFEPRNLLSLFED [S1V]	1.94
SFEPRNLLSLFET [D13T]	0.469
SFEPRNLLSTFED [L10T]	-0.458
SFEPRNLLSLFSD [E12S]	0.797
SFEPRNLLSLWED [F11W]	0.0565
SFFPRNLLSLFED [E3F]	1.96
SFEPRNLLSKFED [L10K]	-1.18

Sample 4 — technique: protein-binding microarray; molecule type: double-stranded DNA, one strand shown; sample: in vitro; tested at: 940 nM top; notes: 60-bp whole probe; with: salmon DNA 0.4 mg/ml; reference: random background probes; direction: higher = stronger binding; constant ends, left off below: GCCTAGCAC … GTCTTGATTCGCTTGACGCTGCTG
Target: Interferon regulatory factor 5, full length, phosphomimetic (IRF5, Homo sapiens, UniProt Q13568-2, residues 1-514, S451D/S453D/S456D/S462D)
Sequence	fitted relative affinity
GACGATTTCAGGATCGAGACGTGCTAG	-0.0671 z-score
GACGATATCATACTGGAGACGTGCTAG	-0.107 z-score
GACGGTGTCGGTATCGGGACGTGCTAG	1.76 z-score
TTAGGTATCGGTTTCGGCTAGTGCTAG	11.5 z-score
TTAGAACTGGGGACTGGATTGGTGCTA	0.0312 z-score
TTTTAAAATGGACACTGTACAGTGCTA	-0.349 z-score
TTAGGTTTCCATTCCCTTTAGTGCTAG	2.4 z-score
TTTGATATCGGGACTGGATTAGTGCTA	0.201 z-score
CTAGGTTTCGGACTGGGTTAGTGCTAG	6.19 z-score
TCATCTAAAAAGTCTCTGACTGTGCTA	0.214 z-score
TCCTCTCTCTATTCAGAGGAGTGCTAG	4.19 z-score
TATTACCTCATCTTCCTCTGCGTGCTA	1.28 z-score
TTAGGTTTCATACTGCTTTAGTGCTAG	4.19 z-score
TTAGGACTGATTATCCTTTAGTGCTAG	-0.641 z-score
GACGGTATCGATTTCGGGACGTGCTAG	7.66 z-score
CGTCATTTCACAGTTAACCAGTGCTAG	0.244 z-score
GACGGACTGAGGTATCGGGACGTGCTA	0.246 z-score
TCAGCTCTGCAGCTCAGACTGTGCTAG	-0.678 z-score
AACGGTTCCGGTTTCGGGACGTGCTAG	5.29 z-score

Sample 5 — technique: universal PBM; molecule type: double-stranded DNA, one strand shown; sample: in vitro; tested at: 600 nM; direction: higher = stronger binding
Target: Sal-like protein 4, full length isoform A (SALL4, Homo sapiens, UniProt Q9UJQ4, residues 1-1053)
Chain of UniProt Q9UJQ4 (whole entry, looked up): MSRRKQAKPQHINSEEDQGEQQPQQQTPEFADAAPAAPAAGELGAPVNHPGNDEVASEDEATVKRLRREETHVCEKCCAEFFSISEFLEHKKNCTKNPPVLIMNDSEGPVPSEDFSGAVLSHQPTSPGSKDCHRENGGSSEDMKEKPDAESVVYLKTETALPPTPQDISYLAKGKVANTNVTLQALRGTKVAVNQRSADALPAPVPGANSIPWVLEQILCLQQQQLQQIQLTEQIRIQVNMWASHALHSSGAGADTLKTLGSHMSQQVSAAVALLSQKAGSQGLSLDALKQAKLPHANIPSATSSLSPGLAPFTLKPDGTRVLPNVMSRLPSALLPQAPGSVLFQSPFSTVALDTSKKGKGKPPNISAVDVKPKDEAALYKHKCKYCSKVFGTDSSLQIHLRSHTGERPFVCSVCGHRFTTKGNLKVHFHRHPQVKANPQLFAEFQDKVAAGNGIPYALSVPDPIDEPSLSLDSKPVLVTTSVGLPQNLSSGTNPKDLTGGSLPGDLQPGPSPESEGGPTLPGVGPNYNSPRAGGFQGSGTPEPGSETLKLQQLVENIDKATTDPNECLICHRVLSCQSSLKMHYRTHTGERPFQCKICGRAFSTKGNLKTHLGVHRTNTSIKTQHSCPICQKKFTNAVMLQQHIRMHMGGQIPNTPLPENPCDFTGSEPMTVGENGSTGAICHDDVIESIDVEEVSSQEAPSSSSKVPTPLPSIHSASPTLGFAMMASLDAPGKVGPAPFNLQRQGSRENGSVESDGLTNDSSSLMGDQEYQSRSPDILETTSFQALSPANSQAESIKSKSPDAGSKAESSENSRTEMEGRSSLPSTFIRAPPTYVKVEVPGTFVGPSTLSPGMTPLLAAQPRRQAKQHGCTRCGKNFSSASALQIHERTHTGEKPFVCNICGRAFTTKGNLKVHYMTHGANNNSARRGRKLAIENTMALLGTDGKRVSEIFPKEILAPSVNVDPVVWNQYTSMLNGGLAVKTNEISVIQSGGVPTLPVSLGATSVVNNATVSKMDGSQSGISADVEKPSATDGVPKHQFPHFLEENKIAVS
Notes: 8-mer, flanks averaged, mean of replicates
Sequence	E-score
CAACATCA	0.222
AGCCCATC	-0.168
CCGTGTGA	-0.182
ACTTTCGG	-0.00502
GACTGGCA	-0.298
ATGCAGGC	-0.14
CCTTACCC	-0.195
AGTGTGTC	0.0671
ACCACGAC	-0.234
CCCGAAAG	-0.113
CGGAAGCC	-0.28
CACCTACA	-0.0274
CTTGTCTC	-0.14
ACCTAGAA	0.133
AGTTCGGC	-0.143
TCTCTGCA	-0.0162
AGTCCGGG	-0.313
ACCGTGGC	-0.269

Sample 6 — technique: DHFR PCA, deep sequencing; sample: yeast; with: (+)-ABA 0.032 µM; reference: wild-type fitted maximum; direction: higher = stronger binding
Target: ABI1, truncated, D143A, DHFR fusion (Arabidopsis thaliana)
Notes: methotrexate growth selection, single substitutions
Starting sequence: PYL1, truncated, DHFR fusion (Arabidopsis thaliana); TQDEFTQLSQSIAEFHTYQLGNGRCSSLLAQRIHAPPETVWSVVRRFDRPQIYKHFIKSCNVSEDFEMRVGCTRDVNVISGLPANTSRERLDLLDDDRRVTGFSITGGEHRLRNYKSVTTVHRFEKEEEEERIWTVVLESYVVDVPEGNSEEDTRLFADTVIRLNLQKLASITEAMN
Change	relative binding score
L166F	-3.52%
V40I	-6.86%
Q2Y	64.8%
L91W	-3.88%
K116I	-3.24%
D159F	-9.98%
V40P	0.837%
R24Y	24.2%
V70S	-0.365%
E127K	50.3%
S150G	0.21%
E131M	39.1%
R155T	2.38%
V143P	-3.13%
T106G	1.36%
V136G	-1.69%
G148F	-14.3%
E174L	-2.07%
V43W	-5.12%
E109S	13.6%
T73I	40.9%
R46H	1.14%
I52F	1.72%
T73F	44.3%
T160Y	18.1%

Sample 7 — technique: protein-binding microarray; molecule type: hairpin DNA; sample: in vitro; tested at: not given; reference: not given; direction: higher = stronger binding
Target: Runt-related transcription factor 3, Runt domain (RUNX3, Homo sapiens, UniProt Q13761, residues 53-186)
Chain of UniProt Q13761 (53-186, looked up): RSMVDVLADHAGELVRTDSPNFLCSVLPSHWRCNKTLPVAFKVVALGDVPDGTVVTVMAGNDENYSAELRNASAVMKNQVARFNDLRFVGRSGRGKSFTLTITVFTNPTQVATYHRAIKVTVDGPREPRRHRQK
Notes: whole hairpin DNA, median over replicate spots
Sequence	median fluorescence
GAGGCCCGTCGCGGTTGGCCTCCTGGCCAACCGCGACGGGCCTCACACTC (5mC at 7 37)	5940 a.u.
GAGGCCCAACCGCAACAGCCTCCTGGCTGTTGCGGTTGGGCCTCACACTC (5mC at 10)	5380 a.u.
CTCAGTTCTCGGGGCTGGACTCCTGTCCAGCCCCGAGAACTGAGACACTC (5mC at 10)	4440 a.u.
GAGGCCTGTCGCGGTCGGCCTCCTGGCCGACCGCGACAGGCCTCACACTC (5mC at 28)	6030 a.u.
GAGGCCTGTTCGGGTTGGCCTCCTGGCCAACCCGAACAGGCCTCACACTC	5100 a.u.
GAGGCCGGTTGCGGTTGGCCTCCTGGCCAACCGCAACCGGCCTCACACTC	10600 a.u.
GAGGCCTTTTGTGGTTGGCCTCCTGGCCAACCACAAAAGGCCTCACACTC	5110 a.u.
GAGGCCCACGCGCAACAGCCTCCTGGCTGTTGCGCGTGGGCCTCACACTC (5mC at 9 35)	5240 a.u.
CTCAGTTCTCGGGGCTGGACTCCTGTCCAGCCCCGAGAACTGAGACACTC	4520 a.u.
CTCAGTTCCGTGGGCTGGACTCCTGTCCAGCCCACGGAACTGAGACACTC (5mC at 9)	4580 a.u.
GAGGCCCAACCGCAACCGCCTCCTGGCGGTTGCGGTTGGGCCTCACACTC (5mC at 17)	10100 a.u.
GAGGCCTGTTGCGGTTGGCCTCCTGGCCAACCGCAACAGGCCTCACACTC (5mC at 34)	8810 a.u.
GAGGCCCGTTGTGGTTGGCCTCCTGGCCAACCACAACGGGCCTCACACTC (5mC at 7 37)	5930 a.u.
CTCAGTCGTGTGGGCTGGACTCCTGTCCAGCCCACACGACTGAGACACTC (5mC at 7 37)	4370 a.u.
GAGGCCTGTTGCGGTTCGCCTCCTGGCGAACCGCAACAGGCCTCACACTC (5mC at 17)	6370 a.u.
GAGGCCCAACCTCAACAGCCTCCTGGCTGTTGAGGTTGGGCCTCACACTC	4690 a.u.
CTCAGTTCTCGGGGCTGGACTCCTGTCCAGCCCCGAGAACTGAGACACTC (5mC at 10 34)	4150 a.u.
CTCAGTTCTGTGGGCTAGACTCCTGTCTAGCCCACAGAACTGAGACACTC	4060 a.u.
GAGGCCCAACCGAAACAGCCTCCTGGCTGTTTCGGTTGGGCCTCACACTC	4940 a.u.
GAGGCCCCGCCGCAACAGCCTCCTGGCTGTTGCGGCGGGGCCTCACACTC	6270 a.u.
GAGGCCTGTCGCGGTTGGCCTCCTGGCCAACCGCGACAGGCCTCACACTC (5mC at 41)	6010 a.u.
GAGGCCTGTCGCGGTTGGCCTCCTGGCCAACCGCGACAGGCCTCACACTC (5mC at 44)	6870 a.u.
GAGGCCTGTTGCGGTCGGCCTCCTGGCCGACCGCAACAGGCCTCACACTC (5mC at 28)	7900 a.u.
GAGGCCTGTTGCGCGTGGCCTCCTGGCCACGCGCAACAGGCCTCACACTC (5mC at 14)	5150 a.u.

Some of these lines once more (sample 1):
Change	binding fitness [natural log]
A46M	-0.111
R30H	-0.167
S47Q	-0.0828
S43F	-0.277
T37M	0.279
Q55C	-0.599
S47D	-0.0658
M51T	-0.177
K36E	-0.235
K39M	-0.152
N42S	-1.06
A49M	-0.655
Q55N	-1.1
